Assay results pooled from the literature.
A part holds a random share of what one study measured. Positions count from the first letter of the parent shown.

Series 1 — target: CREBL2, bZIP domain (human); technique: DHFR protein complementation; sample: yeast; reference: wild-type JUN-FOS pair; direction: higher = stronger binding
Notes: single substitutions, most at no-binding floor
Parent: JUN, bZIP domain (human); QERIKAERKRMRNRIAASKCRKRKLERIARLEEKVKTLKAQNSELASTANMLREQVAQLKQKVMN; partner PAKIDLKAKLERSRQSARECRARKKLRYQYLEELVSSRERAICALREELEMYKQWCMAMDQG
The binding fitness of `V56P` is reported as -1.49 natural log.
For `S43W`, the binding fitness was -1.36 natural log.
For `R30N`, the binding fitness was -1.36 natural log.
For `T48V`, the binding fitness was -1.58 natural log.
`K36G` has a binding fitness of -1.41 natural log.
The binding fitness of `S43V` is reported as -1.5 natural log.
The binding fitness of `L52Q` is reported as -1.57 natural log.
`V56T` has a binding fitness of -1.56 natural log.
The binding fitness of `A40Q` is reported as -1.3 natural log.
`R53D` has a binding fitness of -1.43 natural log.
For `K39G`, the binding fitness was -1.48 natural log.
`S47R` gave a binding fitness of -1.49 natural log.
`I28Y` has a binding fitness of -1.5 natural log.
The binding fitness of `Q55G` is reported as -1.53 natural log.
For `R53M`, the binding fitness was -1.53 natural log.
`V35T` has a binding fitness of -1.49 natural log.
`Q55A` has a binding fitness of -1.56 natural log.
For `K39Y`, the binding fitness was -1.55 natural log.
`T48E` gave a binding fitness of -1.53 natural log.
With `A57V` the binding fitness was -1.55 natural log.
`A46R` gave a binding fitness of -1.38 natural log.
For `L45F`, the binding fitness was -1.43 natural log.
`I28H` gave a binding fitness of -1.48 natural log.
`L38I` has a binding fitness of -1.17 natural log.

Series 2 — target: CCNA2, cyclin fold, Cln2 fusion (human); technique: yeast growth competition, sequencing; sample: yeast; notes: strong parent motif; reference: not given; direction: higher = stronger binding
Parent: PKMYT1 docking peptide (human); SFEPRNLLSLFED
`F2N` — result for “normalised enrichment score”: -0.168.
`F2H` — result for “normalised enrichment score”: 0.649.
Under “normalised enrichment score”, `S9Y` is recorded as 2.3.
For `N6R`, “normalised enrichment score” read 1.89.
For `L7Q`, “normalised enrichment score” read -1.25.
For `L7A`, “normalised enrichment score” read -0.544.
`P4E`: “normalised enrichment score” -0.918.
Under “normalised enrichment score”, `E3V` is recorded as 4.56.
Under “normalised enrichment score”, `N6A` is recorded as 1.52.
`S1R` — result for “normalised enrichment score”: 4.23.
For `E12S`, “normalised enrichment score” read 1.4.
For `L10K`, “normalised enrichment score” read 1.91.
`L10I` — result for “normalised enrichment score”: 1.5.
`S9E`: “normalised enrichment score” 1.91.
`E12P`: “normalised enrichment score” 0.678.
`S9K` — result for “normalised enrichment score”: 2.15.
Under “normalised enrichment score”, `E3T` is recorded as 3.27.
`L8C` — result for “normalised enrichment score”: 1.56.
`R5W`: “normalised enrichment score” -0.715.
Under “normalised enrichment score”, `F11R` is recorded as -0.921.
`R5P` — result for “normalised enrichment score”: -1.18.
Under “normalised enrichment score”, `E3W` is recorded as 2.78.
`L7W`: “normalised enrichment score” -0.381.

Series 3 — technique: competition protein-binding microarray; molecule type: double-stranded DNA, one strand shown; sample: in vitro; concentration: 2 µM; added: Cbf1 competitor, 0.05 µM; direction: higher = stronger binding; all sequences stand within: … GTCTTGATTCGCTTGACGCTGCTG
Target: Phosphate system positive regulatory protein PHO4, full length, GST-tagged (PHO4, Saccharomyces cerevisiae, UniProt P07270, residues 1-312)
Notes: whole 60-bp probe, lowest competitor level
Target sequence (chain): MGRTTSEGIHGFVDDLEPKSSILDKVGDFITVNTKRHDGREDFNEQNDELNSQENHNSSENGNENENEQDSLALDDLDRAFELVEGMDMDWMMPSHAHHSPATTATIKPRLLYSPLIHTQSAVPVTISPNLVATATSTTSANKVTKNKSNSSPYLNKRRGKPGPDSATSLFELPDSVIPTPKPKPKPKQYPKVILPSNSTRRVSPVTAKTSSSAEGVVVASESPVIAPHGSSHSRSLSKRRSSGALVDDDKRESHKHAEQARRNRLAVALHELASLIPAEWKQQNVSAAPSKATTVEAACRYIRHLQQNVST
The fluorescence intensity of `AACGGAAATGCATCTCGCGTGGCAAGGCGGCTCGCT` is reported as 7540 a.u.
`CTTCTGTAAATTTTTCACGTGCTATGACGCGCCCCG` has a fluorescence intensity of 12300 a.u.
`CGCAAATGGGCATTTGATGTGACGAAAAATTTGGAC` gave a fluorescence intensity of 3400 a.u.
`TTTAAAAGATGAAAGCACGTTACAAGCCTCTTCTTA` gave a fluorescence intensity of 8760 a.u.
`ATTAAGATCAATCGGCACGTGCTTTTTTCGAACATC` has a fluorescence intensity of 20900 a.u.
For `TAAGTGTGTCCCACACTCGTGGCAATTTTTCTTGAT`, the fluorescence intensity was 10900 a.u.
With `CTTCTGTAAATTTGTCACACCACTTGACGCGCCCCG` the fluorescence intensity was 4020 a.u.
`CTAACGAAGGTTTTTCACGTGCTATACAAGCCAAGT` has a fluorescence intensity of 15700 a.u.
For `TGCGCAACAACTTTTCACGTGAATTTATGTCTAGAA`, the fluorescence intensity was 8340 a.u.
With `GGTAGCGATTTCCATCACGTGACTCGTTTTTATTCC` the fluorescence intensity was 14100 a.u.
`GTCTTGTCTCATTGCGAGGTGGGTGTCCCCACTTCA` gave a fluorescence intensity of 4530 a.u.
For `CTTTTAACTTGCCTGCATGTGTGGAGTTACAAATTA`, the fluorescence intensity was 8020 a.u.
`TCCAAGACGGTTAATCTCGTGATGGATTTTGACTAC` gave a fluorescence intensity of 6720 a.u.
With `TAATAACAATCTACCCACGTGGTGAAGCAACACCTA` the fluorescence intensity was 20800 a.u.
`GTTTCTCTACGATTACACGGGTGAAGCCATTCTCTG` has a fluorescence intensity of 6280 a.u.
For `CGTATGGAGTTTTCAAACGTGGAACAAAGAACCCAA`, the fluorescence intensity was 7920 a.u.
With `CCGATAGTAAGGTTCGACGTGGTGAACCATCAACAA` the fluorescence intensity was 4420 a.u.
`ATATTTCAGCTCCATCACGTGCTTTCAAAGGTACTT` gave a fluorescence intensity of 15100 a.u.
`TGTGGATCATATCACCACGTGTTTTTTCAATCCTTT` gave a fluorescence intensity of 16600 a.u.

Series 4 — technique: protein binding microarray; molecule type: double-stranded DNA, one strand shown; sample: in vitro; concentration: not given; reference: not given; direction: higher = stronger binding
Target: Histone acetyltransferase KAT6A, winged helix 1, GST fusion (KAT6A, Homo sapiens, UniProt Q92794, residues 1-85)
Notes: 8-mer, flanks averaged, mean of 2 arrays, mostly near background
Residues (chain): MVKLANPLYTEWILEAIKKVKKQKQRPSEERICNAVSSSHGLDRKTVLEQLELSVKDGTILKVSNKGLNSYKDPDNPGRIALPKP
The E-score of `ACCGCGTG` is reported as 0.345.
With `AGTATAGA` the E-score was -0.109.
`AAGATATC` has an E-score of -0.224.
`GTCCGGTA` has an E-score of 0.149.
The E-score of `GCAAATAA` is reported as -0.188.
For `AATGAGCA`, the E-score was -0.216.
The E-score of `ATGTAGGC` is reported as -0.0347.
With `GCGTGTAA` the E-score was 0.156.
`GCGTGGCC` has an E-score of 0.209.
`ATACCACA` gave an E-score of -0.255.
`ATAAGACA` has an E-score of -0.184.
For `TGCACGCA`, the E-score was 0.087.
The E-score of `AATGCACA` is reported as -0.0947.
`CCAGCAAG` gave an E-score of -0.196.
`ATATCAGA` gave an E-score of -0.0971.
With `AGTGCAGG` the E-score was -0.109.
`CCAACACC` gave an E-score of -0.222.
For `AGTAGGTA`, the E-score was -0.13.
With `ACCGCGTC` the E-score was 0.385.
For `CCACTACC`, the E-score was -0.0372.
The E-score of `CGGCACCG` is reported as 0.391.
With `GATAGAGA` the E-score was -0.136.
`CCAATGGA` gave an E-score of -0.138.
The E-score of `ACGCCCAA` is reported as -0.0729.
With `CTTGCAGC` the E-score was 0.0887.

Some of these lines once more (series 2):
`S9E`: “normalised enrichment score” 1.91.
For `L10K`, “normalised enrichment score” read 1.91.
Under “normalised enrichment score”, `F11R` is recorded as -0.921.
`P4E`: “normalised enrichment score” -0.918.
For `L7Q`, “normalised enrichment score” read -1.25.
For `N6R`, “normalised enrichment score” read 1.89.
`F2H` — result for “normalised enrichment score”: 0.649.
`E12P`: “normalised enrichment score” 0.678.
`S1R` — result for “normalised enrichment score”: 4.23.
`L8C` — result for “normalised enrichment score”: 1.56.
`L10I` — result for “normalised enrichment score”: 1.5.
`S9K` — result for “normalised enrichment score”: 2.15.
`F2N` — result for “normalised enrichment score”: -0.168.
